Experimental data collected from several papers.
Parts stem from different laboratories: compare values within a part only.

Block 1
Target: RNA binding protein fox-1 homolog 2, RRM domain, GST-SBP tag (RBFOX2, Homo sapiens, UniProt O43251-10, residues 100-194)
Technique: RNA Bind-n-Seq
Form: RNA
Medium: in vitro
Tested at: 365 nM
Setting: natural RNA segment, single round, ends assumed
Reference: no-protein control
Reading: higher = stronger binding
Residues (chain): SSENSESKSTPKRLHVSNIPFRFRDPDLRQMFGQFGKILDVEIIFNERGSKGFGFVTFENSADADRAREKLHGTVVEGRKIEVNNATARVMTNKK
Oligonucleotide | RBNS enrichment (R)
GGGAGUUCUACAGUCCGACGAUCGCUUGUUGUUUGAGAAGUUUAACCCCGUUGCUUGUUGUUCUGCAGCCCUGUCUACUUGGGCACCCCCACCACCUGUUAGCUGUGGUUGUGCACUGUCUUUUGUAGCUCUGUGGAAUUCUCGGGUGCCAA | 16.6
GGGAGUUCUACAGUCCGACGAUCAAAGUUACUGUGGUAUCUAUGAGUUAUCAUCUUAGCUGUGUUAAAAAUGAAUUUUUACUAUGGCAGAUAUGGUAUGGAUCGUAAAAUUUUAAGCACUAAAAAUUUUUUCAUGGAAUUCUCGGGUGCCAA | 0.738
GGGAGUUCUACAGUCCGACGAUCGCAAGACAUGAACUGACUAAUUGGUAUCCACUACUUGUACAGCUUACAUAAAUGAGUUGAUGAUAUUUAACCAGUUUUUAUAAACUUCAUUUAGGUCUCUAAACACAGACUGGAAUUCUCGGGUGCCAA | 0.278
GGGAGUUCUACAGUCCGACGAUCCCAGCCAGGCUAGAGGAGUGCCAGCAGGUCCCAGUAGGUCCUUAGGAAGGCUGUCAAGGCCCAGUCCAUGGUUCCUUCUCUGCUUCUCCUACAUACCUUUCCCAUCACACUGGAAUUCUCGGGUGCCAA | 0.255

Block 2
Target: Protein C-ets-1 (ETS1, Homo sapiens, UniProt P14921, residues 1-441, full length assumed)
Chain of UniProt P14921 (whole entry, looked up): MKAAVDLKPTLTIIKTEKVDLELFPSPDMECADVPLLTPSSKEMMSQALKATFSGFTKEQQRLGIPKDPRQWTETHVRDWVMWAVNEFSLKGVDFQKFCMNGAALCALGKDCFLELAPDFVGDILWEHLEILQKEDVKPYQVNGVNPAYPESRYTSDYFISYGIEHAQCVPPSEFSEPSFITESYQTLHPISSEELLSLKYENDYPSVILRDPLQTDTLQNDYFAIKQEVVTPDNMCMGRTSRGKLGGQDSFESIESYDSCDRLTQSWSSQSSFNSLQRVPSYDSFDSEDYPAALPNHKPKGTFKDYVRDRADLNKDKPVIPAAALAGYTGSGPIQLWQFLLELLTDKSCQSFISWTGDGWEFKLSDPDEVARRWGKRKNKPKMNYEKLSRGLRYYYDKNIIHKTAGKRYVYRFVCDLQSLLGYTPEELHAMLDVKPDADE
Technique: protein-binding microarray
Form: double-stranded DNA, one strand shown
Medium: in vitro
Tested at: not given
Setting: k-mer, scored over probes, only values ≥0.25
Reading: higher = stronger binding
Oligonucleotide | E-score
GTTCCGGA | 0.461
AAATGGAG | 0.26
CGCATCCG | 0.474
ATGGCCGG | 0.264
AAGGAAGA | 0.326

Block 3
Target: Histone acetyltransferase KAT6A, winged helix 1, GST fusion (KAT6A, Homo sapiens, UniProt Q92794, residues 1-85)
Technique: protein binding microarray
Form: double-stranded DNA, one strand shown
Medium: in vitro
Tested at: not given
Setting: 8-mer, flanks averaged, mean of 2 arrays, mostly near background
Reference: not given
Reading: higher = stronger binding
Construct (chain): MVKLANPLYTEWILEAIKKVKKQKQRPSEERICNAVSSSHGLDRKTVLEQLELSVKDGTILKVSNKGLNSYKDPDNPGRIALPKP
Oligonucleotide | E-score
CCTGCAGA | -0.136
GGTTAACC | -0.0316
CTTGTGGC | -0.193
TGCAGGAA | -0.254
GACAAGAC | 0.0887
CAATCGCC | 0.138
ATATAGGA | -0.164

Other studies, line by line
Molecule | target | assay | test system | conditions | how to read | endpoint | result
PhoQ, residues 284 288 289 292 302 303 AGCYAI | PhoP, residues 12 14 15 18 19 HLGGL (Escherichia coli, UniProt P23836) | Sort-seq, item: YFP reporter | E. coli | PhoQ-PhoP variant library, with: 10 µM Mg2+ | reference: high Mg2+ state, higher = stronger signaling | fold induction | 0.88

A few entries again (block 1):
Oligonucleotide | RBNS enrichment (R)
GGGAGUUCUACAGUCCGACGAUCAAAGUUACUGUGGUAUCUAUGAGUUAUCAUCUUAGCUGUGUUAAAAAUGAAUUUUUACUAUGGCAGAUAUGGUAUGGAUCGUAAAAUUUUAAGCACUAAAAAUUUUUUCAUGGAAUUCUCGGGUGCCAA | 0.738
GGGAGUUCUACAGUCCGACGAUCGCAAGACAUGAACUGACUAAUUGGUAUCCACUACUUGUACAGCUUACAUAAAUGAGUUGAUGAUAUUUAACCAGUUUUUAUAAACUUCAUUUAGGUCUCUAAACACAGACUGGAAUUCUCGGGUGCCAA | 0.278
